Results from different studies.
Protocols differ between the studies behind these lines. “And” joins repeats or separate records; there may be more than shown. Numbers after ± are the reported error.
CD38: ADP-ribosyl cyclase/cyclic ADP-ribose hydrolase 1 (CD38, Homo sapiens, UniProt P28907)
Sequence of UniProt P28907 (whole entry, looked up): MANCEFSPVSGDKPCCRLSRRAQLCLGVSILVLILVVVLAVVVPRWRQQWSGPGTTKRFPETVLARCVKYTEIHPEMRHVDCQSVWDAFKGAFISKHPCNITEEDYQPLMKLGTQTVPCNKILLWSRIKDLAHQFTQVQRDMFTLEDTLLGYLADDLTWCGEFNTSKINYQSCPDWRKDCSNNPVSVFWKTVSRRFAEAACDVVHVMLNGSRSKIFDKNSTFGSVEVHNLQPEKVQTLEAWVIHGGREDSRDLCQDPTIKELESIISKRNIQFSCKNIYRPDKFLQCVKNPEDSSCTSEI
CSNK1A1/CRBN: Cereblon/Casein kinase I alpha (CSNK1A1/CRBN, Homo sapiens, UniProt P48729+Q96SW2)
Sequence of UniProt Q96SW2 (whole entry, looked up): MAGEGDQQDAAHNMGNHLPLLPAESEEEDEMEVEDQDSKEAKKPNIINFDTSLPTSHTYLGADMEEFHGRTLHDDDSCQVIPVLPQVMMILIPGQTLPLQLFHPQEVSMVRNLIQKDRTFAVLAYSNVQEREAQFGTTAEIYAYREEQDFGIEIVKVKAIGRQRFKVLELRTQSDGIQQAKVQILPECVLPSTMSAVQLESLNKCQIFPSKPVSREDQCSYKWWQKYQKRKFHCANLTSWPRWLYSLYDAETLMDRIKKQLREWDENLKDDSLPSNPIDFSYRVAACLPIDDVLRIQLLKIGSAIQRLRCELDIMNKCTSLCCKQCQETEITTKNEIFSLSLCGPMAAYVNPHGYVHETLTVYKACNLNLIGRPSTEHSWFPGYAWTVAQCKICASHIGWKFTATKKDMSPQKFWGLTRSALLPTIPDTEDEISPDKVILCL
Sequence of UniProt P48729 (whole entry, looked up): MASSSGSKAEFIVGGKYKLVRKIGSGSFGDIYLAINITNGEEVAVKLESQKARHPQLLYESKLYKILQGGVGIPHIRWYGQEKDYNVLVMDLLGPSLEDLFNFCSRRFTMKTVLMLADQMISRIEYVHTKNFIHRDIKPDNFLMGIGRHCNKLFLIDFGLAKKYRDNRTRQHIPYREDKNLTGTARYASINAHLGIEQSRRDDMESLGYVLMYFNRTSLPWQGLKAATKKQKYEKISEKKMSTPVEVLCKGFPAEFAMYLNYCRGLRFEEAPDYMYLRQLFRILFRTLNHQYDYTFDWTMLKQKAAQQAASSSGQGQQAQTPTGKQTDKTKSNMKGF
CES1: Liver carboxylesterase 1 (CES1, Homo sapiens, UniProt P23141)
Sequence of UniProt P23141 (whole entry, looked up): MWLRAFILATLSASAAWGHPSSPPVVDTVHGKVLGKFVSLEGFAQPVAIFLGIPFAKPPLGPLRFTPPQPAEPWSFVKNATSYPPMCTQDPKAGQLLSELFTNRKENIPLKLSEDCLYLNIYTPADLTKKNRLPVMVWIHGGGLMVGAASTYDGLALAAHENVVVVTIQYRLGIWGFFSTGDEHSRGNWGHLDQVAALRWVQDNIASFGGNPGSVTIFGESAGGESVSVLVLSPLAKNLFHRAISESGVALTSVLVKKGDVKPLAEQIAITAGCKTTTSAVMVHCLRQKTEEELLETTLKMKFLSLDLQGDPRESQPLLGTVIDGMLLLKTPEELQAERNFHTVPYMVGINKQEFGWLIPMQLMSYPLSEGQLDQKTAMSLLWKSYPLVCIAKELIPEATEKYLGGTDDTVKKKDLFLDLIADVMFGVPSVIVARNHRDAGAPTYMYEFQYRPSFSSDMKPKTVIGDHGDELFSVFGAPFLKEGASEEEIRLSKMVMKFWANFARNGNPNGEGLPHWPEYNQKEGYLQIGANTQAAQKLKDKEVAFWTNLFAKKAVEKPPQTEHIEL
T1: RNA aptamer; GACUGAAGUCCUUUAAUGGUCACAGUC
T2: RNA aptamer; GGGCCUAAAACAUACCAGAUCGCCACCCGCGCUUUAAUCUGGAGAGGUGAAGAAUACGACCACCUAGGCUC
Sequence of UniProt P23919 (whole entry, looked up): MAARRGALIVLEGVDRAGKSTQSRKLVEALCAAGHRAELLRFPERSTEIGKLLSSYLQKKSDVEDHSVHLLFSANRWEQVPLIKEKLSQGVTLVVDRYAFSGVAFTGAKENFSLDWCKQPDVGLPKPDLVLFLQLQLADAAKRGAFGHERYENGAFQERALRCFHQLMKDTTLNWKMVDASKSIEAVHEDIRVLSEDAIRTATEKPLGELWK
Sequence of UniProt P50391 (whole entry, looked up): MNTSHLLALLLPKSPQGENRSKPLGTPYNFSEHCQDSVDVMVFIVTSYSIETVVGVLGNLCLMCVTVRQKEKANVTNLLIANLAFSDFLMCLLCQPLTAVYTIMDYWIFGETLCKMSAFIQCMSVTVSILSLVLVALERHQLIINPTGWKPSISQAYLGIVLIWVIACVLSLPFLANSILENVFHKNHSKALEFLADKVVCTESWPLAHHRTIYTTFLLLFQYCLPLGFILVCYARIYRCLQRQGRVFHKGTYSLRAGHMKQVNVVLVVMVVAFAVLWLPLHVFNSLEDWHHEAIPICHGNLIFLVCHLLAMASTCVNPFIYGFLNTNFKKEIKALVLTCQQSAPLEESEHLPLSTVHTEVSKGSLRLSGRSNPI
Sequence of UniProt O66465 (whole entry, unmodified, looked up): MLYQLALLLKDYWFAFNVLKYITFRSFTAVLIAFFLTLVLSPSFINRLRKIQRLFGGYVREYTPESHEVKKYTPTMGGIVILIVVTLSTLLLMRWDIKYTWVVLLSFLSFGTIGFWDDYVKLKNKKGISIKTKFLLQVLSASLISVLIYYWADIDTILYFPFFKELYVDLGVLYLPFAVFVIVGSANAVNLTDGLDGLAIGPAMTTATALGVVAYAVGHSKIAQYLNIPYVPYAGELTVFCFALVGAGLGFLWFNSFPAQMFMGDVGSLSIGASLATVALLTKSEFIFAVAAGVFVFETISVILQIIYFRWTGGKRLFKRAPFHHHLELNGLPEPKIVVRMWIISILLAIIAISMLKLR
Sequence of UniProt P61073 (whole entry, looked up): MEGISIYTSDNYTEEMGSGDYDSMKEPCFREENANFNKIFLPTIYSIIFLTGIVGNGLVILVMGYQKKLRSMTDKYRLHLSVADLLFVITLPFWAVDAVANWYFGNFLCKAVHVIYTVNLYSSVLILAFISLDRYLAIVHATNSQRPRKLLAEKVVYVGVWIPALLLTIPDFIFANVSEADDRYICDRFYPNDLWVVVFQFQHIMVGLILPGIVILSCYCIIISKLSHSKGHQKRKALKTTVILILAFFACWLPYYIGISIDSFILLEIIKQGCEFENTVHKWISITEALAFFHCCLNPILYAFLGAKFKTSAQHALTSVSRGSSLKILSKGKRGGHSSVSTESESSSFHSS
Sequence of UniProt Q16539 (whole entry, looked up): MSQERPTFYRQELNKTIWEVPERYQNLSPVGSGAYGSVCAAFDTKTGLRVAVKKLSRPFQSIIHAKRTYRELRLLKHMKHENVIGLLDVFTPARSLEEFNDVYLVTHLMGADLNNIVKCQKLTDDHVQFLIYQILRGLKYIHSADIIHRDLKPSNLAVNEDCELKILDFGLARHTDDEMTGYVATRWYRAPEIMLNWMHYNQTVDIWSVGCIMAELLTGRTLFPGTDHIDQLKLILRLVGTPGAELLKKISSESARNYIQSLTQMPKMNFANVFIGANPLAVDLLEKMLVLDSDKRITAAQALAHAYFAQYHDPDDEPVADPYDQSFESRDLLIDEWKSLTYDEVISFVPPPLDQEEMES
Sequence of UniProt Q9NZC7 (whole entry, unmodified, looked up): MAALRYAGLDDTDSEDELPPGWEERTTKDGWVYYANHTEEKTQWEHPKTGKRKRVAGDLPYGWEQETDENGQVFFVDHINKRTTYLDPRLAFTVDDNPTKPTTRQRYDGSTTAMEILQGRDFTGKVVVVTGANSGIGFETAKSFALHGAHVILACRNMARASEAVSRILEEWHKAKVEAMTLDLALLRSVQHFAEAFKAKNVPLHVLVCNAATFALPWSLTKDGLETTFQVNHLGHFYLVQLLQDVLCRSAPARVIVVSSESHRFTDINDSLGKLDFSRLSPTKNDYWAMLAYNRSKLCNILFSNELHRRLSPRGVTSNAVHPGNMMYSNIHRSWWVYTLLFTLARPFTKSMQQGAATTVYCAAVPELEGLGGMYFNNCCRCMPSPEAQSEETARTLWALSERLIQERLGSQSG
Sequence of UniProt Q96R45 (whole entry, looked up): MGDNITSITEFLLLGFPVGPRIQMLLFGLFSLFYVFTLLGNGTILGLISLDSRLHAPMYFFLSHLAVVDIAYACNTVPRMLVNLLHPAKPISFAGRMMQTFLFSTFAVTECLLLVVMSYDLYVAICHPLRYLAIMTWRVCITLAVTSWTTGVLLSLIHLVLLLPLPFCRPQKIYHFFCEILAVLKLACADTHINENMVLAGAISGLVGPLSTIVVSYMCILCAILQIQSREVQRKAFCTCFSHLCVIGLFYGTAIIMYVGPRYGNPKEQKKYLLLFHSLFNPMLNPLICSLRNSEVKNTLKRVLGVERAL
Sequence of UniProt O60603 (whole entry, looked up): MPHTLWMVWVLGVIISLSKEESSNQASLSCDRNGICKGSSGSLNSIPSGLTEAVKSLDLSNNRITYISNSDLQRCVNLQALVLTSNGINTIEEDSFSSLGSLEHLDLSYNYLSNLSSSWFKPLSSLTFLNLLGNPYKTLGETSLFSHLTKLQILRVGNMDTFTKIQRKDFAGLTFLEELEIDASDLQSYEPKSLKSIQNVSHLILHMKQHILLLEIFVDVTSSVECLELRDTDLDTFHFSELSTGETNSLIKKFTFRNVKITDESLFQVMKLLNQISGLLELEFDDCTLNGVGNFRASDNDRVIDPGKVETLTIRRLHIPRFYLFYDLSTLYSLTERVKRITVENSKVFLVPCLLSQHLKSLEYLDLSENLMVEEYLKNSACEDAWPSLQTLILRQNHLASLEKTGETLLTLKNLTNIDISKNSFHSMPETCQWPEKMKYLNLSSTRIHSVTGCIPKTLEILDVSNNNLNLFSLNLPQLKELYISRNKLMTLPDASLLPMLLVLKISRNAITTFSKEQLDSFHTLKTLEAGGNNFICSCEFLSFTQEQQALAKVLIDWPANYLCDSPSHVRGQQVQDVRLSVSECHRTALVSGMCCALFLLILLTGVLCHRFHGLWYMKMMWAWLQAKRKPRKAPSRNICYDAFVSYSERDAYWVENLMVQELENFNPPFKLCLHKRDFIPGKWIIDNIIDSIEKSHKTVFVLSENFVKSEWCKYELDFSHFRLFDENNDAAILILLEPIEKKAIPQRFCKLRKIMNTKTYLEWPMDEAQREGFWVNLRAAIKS

SMILES	target	test	test system	setting	scale	quantity	result
Cc1nc(SCC(=O)Nc2ccc(-n3cnnn3)cc2)c2c(C)c(C)sc2n1	CD38	hydrolase activity, fluorometric	–	50 µM, with: ε-NAD+ substrate	baseline: untreated	remaining activity	52.7 ± 6.1%
CC(=O)NCCN(CCC(=O)NCCN(CCC(=O)NCCN(CCC(=O)NCCC(N)=O)C(=O)[C@@H](N)CCCNC(=N)N)C(=O)[C@@H](N)Cc1ccccc1)C(=O)[C@@H](N)Cc1ccccc1	HIV-1 TAR RNA	–	–	concentration not given	–	heat capacity change ΔCp	-1.54 ± 0.25 kJ/mol/K
O=C1CCC(N2C(=O)c3cccc(NCC(=O)N4CCN(c5ccc(Nc6nccc(Oc7ccccc7)n6)cc5)CC4)c3C2=O)C(=O)N1 (stereo not drawn)	CRBN/Zinc finger protein Aiolos (Homo sapiens, UniProt Q96SW2+Q9UKT9)	degrader, TMT quantitative proteomics	Mino	200 nM, 4 h	–	degradation	> 60%
CC(C)CCC[C@@H](C)[C@H]1CC[C@H]2[C@@H]3CC=C4C[C@@H](OS(=O)(=O)O)CC[C@]4(C)[C@H]3CC[C@]12C	Prothrombin (F2, Homo sapiens, UniProt P00734)	enzyme activity, inhibitor	–	with: unfractionated heparin 50 µM	–	Hill slope	2.6 ± 0.4
Cc1cc2nc(-c3ccc4c(c3)CN([C@H]3CCC(=O)NC3=O)C4=O)ccn2n1	CSNK1A1/CRBN	protein level, degrader, luciferase	MOLT-4	–	–	Dmax	83%
CC(=O)N[C@@H](Cc1ccc(O)cc1)C(=O)N[C@@H](CCCNC(=N)NC(=O)NCCCCN)C(=O)N[C@@H](CC(C)C)C(=O)N[C@@H](CCCNC(=N)N)C(=O)N[C@@H](Cc1ccc(O)cc1)C(N)=O	NPY4R (Homo sapiens, UniProt P50391)	β-arrestin-2 recruitment, agonist	HEK293T	concentration not given, unit not given	baseline: 1 µM human pancreatic polypeptide	intrinsic activity	0.6
CC(=O)NCCN(CCC(=O)NCCN(CCC(=O)NCCN(CCC(=O)NCCC(N)=O)C(=O)[C@@H](N)Cc1ccccc1)C(=O)[C@@H](N)CCCNC(=N)N)C(=O)[C@@H](N)Cc1ccccc1	HIV-1 TAR RNA	–	–	–	–	non-electrostatic TΔS°	-1.36 ± 0.693 kcal/mol
CC[C@H](C)[C@H](NC(=O)CNC(C)=O)C(=O)N[C@@H](CCCNC(=N)N)C(=O)N[C@@H](CCC(=O)O)C(=O)N[C@@H](C)C(=O)N[C@H](C(=O)N[C@@H](CC(C)C)C(=O)N[C@@H](CCCNC(=N)N)C(=O)N[C@@H](C)C(=O)N[C@@H](Cc1c[nH]c2ccccc12)C(=O)N[C@@H](CCC(=O)O)C(=O)N[C@@H](CCCNC(=N)N)C(=O)N[C@@H](CCCNC(=N)N)C(=O)N[C@@H](Cc1ccc(O)cc1)C(=O)NCC(=O)N[C@@H](Cc1ccccc1)C(=O)N1CCC[C@H]1C(=O)N[C@@H](CCCNC(=N)N)C(=O)N1CCC[C@H]1C(=O)N[C@@H](CC(C)C)C(=O)N[C@@H](CCCNC(=N)N)C(=O)N[C@@H](CO)C(=O)N[C@@H](CCC(=O)O)C(N)=O)[C@@H](C)O	Antirepressor protein CarS (carS, Myxococcus xanthus, UniProt Q06911)	ITC	–	concentration not given, pH 7.5, 25 °C	–	binding stoichiometry	0.92 ± 0.02
CNC(=O)c1ccc2c(c1)N(C)S(=O)(=O)c1cnc(SC)nc1-2	Kinesin-like protein KIF15 (Homo sapiens, UniProt Q9NS87)	microtubule-activated ATPase activity	–	30 µM, with: ATP, microtubules 3 µM	–	kcat	3.6 ± 0.4 s⁻¹
CC(=O)NCCN(CC(=O)NCCN(CC(=O)NCCN(CC(=O)NCCC(N)=O)C(=O)[C@@H](N)Cc1ccccc1)C(=O)[C@@H](N)CCCNC(=N)N)C(=O)[C@@H](N)Cc1ccccc1	HIV-1 TAR RNA	–	–	–	–	non-electrostatic TΔS°	-5.93 ± 0.406 kcal/mol
CCCCCCCCCCCCCCCC(=O)OC[C@H](CSC[C@H](NC(=O)COCC(=O)NCCCOCCOCCOCCCNC(=O)CN(CCN(CCN(CC(=O)O)CC(=O)O)CC(=O)O)CC(=O)O)C(=O)NCC(=O)N[C@H](CO)C(=O)NCCCOCCOCCOCCCNC(=O)COCC(N)=O)OC(=O)CCCCCCCCCCCCCCC	TLR2 (Homo sapiens, UniProt O60603)	europium TRF saturation binding	HEK293 expressing human TLR2	–	–	Bmax	114000 AFU
CC[C@H](C)[C@H](NC(=O)[C@H](CCC(=O)O)NC(=O)[C@H](CO)NC(=O)[C@@H](NC(=O)[C@@H](N)CO)C(C)C)C(=O)N[C@@H](CCC(N)=O)C(=O)N[C@@H](CC(C)C)C(=O)N[C@@H](CCSC)C(=O)N[C@@H](Cc1c[nH]cn1)C(=O)N[C@@H](CC(N)=O)C(=O)N[C@@H](CC(C)C)C(=O)NCC(=O)N[C@@H](CCCCN)C(=O)N[C@@H](Cc1c[nH]cn1)C(=O)N[C@@H](CC(C)C)C(=O)N[C@@H](CC(N)=O)C(=O)N[C@@H](CO)C(=O)N[C@@H](CCSC)C(=O)N[C@@H](CCC(=O)O)C(=O)N[C@@H](CCCNC(=N)N)C(=O)N[C@H](C(=O)N[C@@H](CCC(=O)O)C(=O)N[C@@H](Cc1c[nH]c2ccccc12)C(=O)N[C@@H](CC(C)C)C(=O)N[C@@H](CCCNC(=N)N)C(=O)N[C@@H](CCCCN)C(=O)N[C@@H](CCCCN)C(=O)N[C@@H](CC(C)C)C(=O)N[C@@H](CCC(N)=O)C(=O)N[C@@H](CC(=O)O)C(=O)N[C@H](C(=O)N[C@@H](Cc1c[nH]cn1)C(=O)N[C@@H](CC(N)=O)C(=O)N[C@@H](Cc1ccccc1)C(=O)N[C@@H](CCCCNC(=O)c1ccc2c(c1)C1(OC2=O)c2ccc(N(C)C)cc2Oc2cc(N(C)C)ccc21)C(N)=O)C(C)C)C(C)C	PTH1R (Homo sapiens, UniProt Q03431)	binding, NanoBRET	–	pH 5.5, acetate buffer	–	kon	980000 ± 400000 M⁻¹ s⁻¹
CC(C)C[C@H](NC(=O)[C@@H](NC(=O)[C@@H](NC(=O)CN)[C@@H](C)O)C(C)C)C(=O)N1CCC[C@H]1C(=O)N1CCC[C@H]1C(=O)N1CCC[C@H]1C(=O)N1CCC[C@H]1C(=O)N[C@@H](Cc1ccc(O)cc1)C(=O)N[C@@H](CCCNC(=N)N)C(=O)N[C@@H](Cc1c[nH]cn1)C(=O)N[C@@H](CCCNC(=N)N)C(=O)N[C@@H](CC(N)=O)C(=O)O	WW domain-containing oxidoreductase, WW1 domain (WWOX, Homo sapiens, UniProt Q9NZC7)	binding, isothermal titration calorimetry	–	pH 7.8, 20 °C, isolated WW1 domain	–	TΔS	17 ± 1.25 kcal/mol
COc1cc(C(O)C(CO)c2ccc(O)c(OC)c2)ccc1O (stereo not drawn)	Alpha-mannosidase (Canavalia ensiformis, UniProt C0HJB3)	binding, surface plasmon resonance	–	25 °C	–	koff	0.00665 s⁻¹
O=C(c1cc2c(s1)CCCCC2)N1CCC(n2c(=O)[nH]c3ccccc32)CC1	Trpc6 (Mus musculus, UniProt Q61143)	ion current, agonist, whole-cell patch clamp	–	concentration not given, wild type, with: DTNB	–	activation	no effect
Cc1cn([C@@H]2C[C@@H](O)[C@H](COP(=O)(O)O)O2)c(=O)[nH]c1=O	Thymidylate kinase (DTYMK, Homo sapiens, UniProt P23919)	substrate	–	–	baseline: compound over D-dTMP	Km ratio	20 and 19
Cc1ccc2c(c1Br)C(O)(CC(=O)c1ccc3c(c1)OCO3)C(=O)N2 (stereo not drawn)	Uncharacterized protein (Trypanosoma brucei brucei, UniProt Q386Q8)	surface plasmon resonance	Trypanosoma brucei	with: 500 µM UTP	–	Rmax	10.21 ± 0.05 RU

SMILES	target	test	test system	setting	scale	quantity	result
Cc1ccccc1CN1CCN(C(=O)c2cccnc2)CC1	MAPK14 (Homo sapiens, UniProt Q16539)	enzyme activity	–	–	–	ligand efficiency	0.15
CCCCCCCCC(=O)Nc1ccc(OC)nc1C	CES1	enzyme activity, substrate	–	–	baseline: CES1 over human CES2	specific activity ratio	11
NC(=O)C1CCNC(=O)C(CCCNC(=O)c2cnccn2)NC(=O)C(Cc2ccco2)NC(=O)C(CC=Cc2ccccc2)NC(=O)C=CC(=O)N1 (stereo not drawn)	PIM1 (Homo sapiens, UniProt P11309)	DNA-templated library selection	–	one selection round	–	enrichment factor	0.91
NC[C@@H]1O[C@H](O[C@H]2[C@@H](O)[C@H](O[C@@H]3[C@@H](O)[C@H](N)C[C@H](N)[C@H]3O[C@H]3O[C@H](CN)[C@@H](O)[C@H](O)[C@H]3N)O[C@@H]2CO)[C@H](N)[C@@H](O)[C@@H]1O	T1, RNA aptamer	UV melting	–	1 µM RNA, 10 µM molecule, pH 6.8, NaCl 100 mM	–	melting temperature change	13.7 °C
O=C1CC[C@H](N2Cc3cc(-c4cnn5ccc(Cl)nc45)ccc3C2=O)C(=O)N1	CSNK1A1/CRBN	protein level, degrader, luciferase	MOLT-4	–	–	Dmax	50%
CC(C)CC(NC(=O)C(NC(=O)NC(C(=O)O)C(C)C)C1CCNC(=N)N1)C(=O)NCCCNC(C(=O)O)C(OC1OC(CN)C(O)C1O)C1OC(n2ccc(=O)[nH]c2=O)C(O)C1O (stereo not drawn)	mraY (Aquifex aeolicus, UniProt O66465, T75A)	ITC	–	concentration not given, T75A mutant	–	binding stoichiometry	0.71 ± 0.01 sites
CC(C)c1cccc(C(C)C)c1-n1c(Cl)c(Cl)n(-c2c(C(C)C)cccc2C(C)C)c1=[Se].[Cl][Au]	TXNRD1 (Homo sapiens, UniProt Q16881)	inhibitor	H157	1 µM, 24 h	–	TrxR activity	no effect
O=c1c(O)c(-c2ccc(O)cc2O)oc2cc(O)cc(O)c12	CD38	cyclase activity, fluorometric	–	50 µM, with: NGD+ substrate	baseline: untreated	remaining activity	21 ± 2.3%
COc1ccc(NC(=O)CCCc2ccccc2)c(C)n1	CES1	enzyme activity, substrate	–	–	baseline: CES1 over human CES2	specific activity ratio	38.8
CC(=O)NCCN(CC(=O)NCCN(CC(=O)NCCN(CC(=O)NCCC(N)=O)C(=O)C[C@@H](N)Cc1ccccc1)C(=O)C[C@@H](N)Cc1ccccc1)C(=O)C[C@@H](N)CCCNC(=N)N	HIV-1 TAR RNA	–	–	concentration not given	–	heat capacity change ΔCp	-1.6 ± 0.1 kJ/mol/K
CN(C)C1C(O)=C(C#N)C(=O)C2(O)C(O)=C3C(=O)c4c(O)cccc4C(C)(O)C3CC12 (stereo not drawn)	T2, RNA aptamer	fluorescence titration	–	pH 7.5, 25 °C, MgCl2 10 mM	–	Kd	9.8 nM
BP(=O)(OC[C@H]1O[C@@H](n2c[n+](C)c3c(O)nc(N)nc32)[C@H](O)[C@@H]1O)OP(=O)([O-])OP(=O)(O)OC[C@H]1O[C@@H](n2cnc3c(=O)[nH]c(N)nc32)[C@H](O)[C@@H]1O (stereo partly drawn)	m7GpppX diphosphatase (dcs-1, Caenorhabditis elegans, UniProt G5EFS4)	fluorescence quenching titration	–	pH 7.6, 20.0 °C	–	association constant	40 ± 1.9 µM⁻¹
CSCC[C@H](NC(=O)[C@H](CO)NC(=O)[C@@H](NC(=O)[C@H](CCC(N)=O)NC(C)=O)[C@@H](C)O)C(=O)N[C@H](C(=O)N[C@@H](CC(=O)O)C(=O)N[C@@H](Cc1ccccc1)C(=O)N[C@@H](Cc1ccc(O)cc1)C(=O)N[C@@H](Cc1c[nH]cn1)C(=O)N[C@@H](CO)C(N)=O)[C@@H](C)O	PCNA (Homo sapiens, UniProt P12004)	binding, isothermal titration calorimetry	–	pH 7.4, 25 °C, 100 mM NaCl, with: p21 peptide	–	entropic term −TΔS	7.17 ± 1.91 kcal/mol
CC(=O)NCCN(CCC(=O)NCCN(CCC(=O)NCCN(CCC(=O)NCCC(N)=O)C(=O)[C@@H](N)CCCCN)C(=O)[C@@H](N)Cc1ccccc1)C(=O)[C@@H](N)Cc1ccccc1	HIV-1 TAR RNA	–	–	–	–	non-electrostatic TΔS°	-4.04 ± 0.287 kcal/mol
CC(C=O)Cc1ccc(C(C)(C)C)cc1 (stereo not drawn)	Olfactory receptor 2A7 (OR2A7, Homo sapiens, UniProt Q96R45)	GFP reporter, agonist	yeast olfactory receptor sensor	–	baseline: DMSO	fold increase	> 2 fold
COc1ccc(CCNC(=N)NCc2ccncc2)cc1	CXCR4 (Homo sapiens, UniProt P61073)	arrestin recruitment, DiscoverX	–	–	–	IC50	inactive

Excerpt of the above:
SMILES	target	test	test system	setting	scale	quantity	result
CC(=O)NCCN(CC(=O)NCCN(CC(=O)NCCN(CC(=O)NCCC(N)=O)C(=O)[C@@H](N)Cc1ccccc1)C(=O)[C@@H](N)CCCNC(=N)N)C(=O)[C@@H](N)Cc1ccccc1	HIV-1 TAR RNA	–	–	–	–	non-electrostatic TΔS°	-5.93 ± 0.406 kcal/mol
CCCCCCCCCCCCCCCC(=O)OC[C@H](CSC[C@H](NC(=O)COCC(=O)NCCCOCCOCCOCCCNC(=O)CN(CCN(CCN(CC(=O)O)CC(=O)O)CC(=O)O)CC(=O)O)C(=O)NCC(=O)N[C@H](CO)C(=O)NCCCOCCOCCOCCCNC(=O)COCC(N)=O)OC(=O)CCCCCCCCCCCCCCC	TLR2 (Homo sapiens, UniProt O60603)	europium TRF saturation binding	HEK293 expressing human TLR2	–	–	Bmax	114000 AFU
